Assay results collected from several papers.
A part holds a random share of what one study measured.
UniProt P15056, sequence (whole entry, unmodified, looked up): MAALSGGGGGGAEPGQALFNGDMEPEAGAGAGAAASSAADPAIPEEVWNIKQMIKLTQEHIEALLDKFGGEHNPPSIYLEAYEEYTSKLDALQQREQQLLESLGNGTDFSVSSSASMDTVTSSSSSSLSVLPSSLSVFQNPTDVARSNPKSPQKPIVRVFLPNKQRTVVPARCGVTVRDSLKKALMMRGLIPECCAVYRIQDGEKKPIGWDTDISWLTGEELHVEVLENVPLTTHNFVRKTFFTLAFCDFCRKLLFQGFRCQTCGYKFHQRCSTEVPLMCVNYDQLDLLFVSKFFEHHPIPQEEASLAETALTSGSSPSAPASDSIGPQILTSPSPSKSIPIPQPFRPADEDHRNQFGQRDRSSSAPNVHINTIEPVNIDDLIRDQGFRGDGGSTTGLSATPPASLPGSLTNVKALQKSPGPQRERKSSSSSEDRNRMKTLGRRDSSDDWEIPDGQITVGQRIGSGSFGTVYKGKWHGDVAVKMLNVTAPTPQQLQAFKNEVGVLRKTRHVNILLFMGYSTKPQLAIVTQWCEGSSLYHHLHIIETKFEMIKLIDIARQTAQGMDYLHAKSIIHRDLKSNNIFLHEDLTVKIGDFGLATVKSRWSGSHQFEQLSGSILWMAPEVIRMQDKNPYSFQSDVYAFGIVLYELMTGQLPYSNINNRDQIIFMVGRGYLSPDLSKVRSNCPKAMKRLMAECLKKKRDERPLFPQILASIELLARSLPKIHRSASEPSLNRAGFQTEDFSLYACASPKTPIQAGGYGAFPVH
UniProt Q16659, sequence (whole entry, looked up): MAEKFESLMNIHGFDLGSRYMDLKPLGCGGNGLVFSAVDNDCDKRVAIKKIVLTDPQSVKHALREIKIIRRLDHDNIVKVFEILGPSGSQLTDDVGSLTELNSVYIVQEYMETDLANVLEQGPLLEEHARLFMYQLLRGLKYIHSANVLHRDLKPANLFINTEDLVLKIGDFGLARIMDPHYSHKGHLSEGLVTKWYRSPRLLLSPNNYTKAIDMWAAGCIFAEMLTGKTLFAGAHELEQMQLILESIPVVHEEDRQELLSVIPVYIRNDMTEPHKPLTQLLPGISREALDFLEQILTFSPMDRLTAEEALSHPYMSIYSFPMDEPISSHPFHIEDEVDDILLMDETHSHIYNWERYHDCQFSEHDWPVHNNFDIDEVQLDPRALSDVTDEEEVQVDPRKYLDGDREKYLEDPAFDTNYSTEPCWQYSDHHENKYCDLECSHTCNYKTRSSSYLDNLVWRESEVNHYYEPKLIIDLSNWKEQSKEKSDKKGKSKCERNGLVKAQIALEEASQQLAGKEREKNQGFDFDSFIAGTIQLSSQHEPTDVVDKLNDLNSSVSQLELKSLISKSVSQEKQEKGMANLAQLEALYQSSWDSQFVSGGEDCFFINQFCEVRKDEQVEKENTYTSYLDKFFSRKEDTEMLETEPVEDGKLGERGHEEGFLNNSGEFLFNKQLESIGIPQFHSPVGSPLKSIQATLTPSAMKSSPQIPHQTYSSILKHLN
UniProt Q61527, sequence (whole entry, looked up): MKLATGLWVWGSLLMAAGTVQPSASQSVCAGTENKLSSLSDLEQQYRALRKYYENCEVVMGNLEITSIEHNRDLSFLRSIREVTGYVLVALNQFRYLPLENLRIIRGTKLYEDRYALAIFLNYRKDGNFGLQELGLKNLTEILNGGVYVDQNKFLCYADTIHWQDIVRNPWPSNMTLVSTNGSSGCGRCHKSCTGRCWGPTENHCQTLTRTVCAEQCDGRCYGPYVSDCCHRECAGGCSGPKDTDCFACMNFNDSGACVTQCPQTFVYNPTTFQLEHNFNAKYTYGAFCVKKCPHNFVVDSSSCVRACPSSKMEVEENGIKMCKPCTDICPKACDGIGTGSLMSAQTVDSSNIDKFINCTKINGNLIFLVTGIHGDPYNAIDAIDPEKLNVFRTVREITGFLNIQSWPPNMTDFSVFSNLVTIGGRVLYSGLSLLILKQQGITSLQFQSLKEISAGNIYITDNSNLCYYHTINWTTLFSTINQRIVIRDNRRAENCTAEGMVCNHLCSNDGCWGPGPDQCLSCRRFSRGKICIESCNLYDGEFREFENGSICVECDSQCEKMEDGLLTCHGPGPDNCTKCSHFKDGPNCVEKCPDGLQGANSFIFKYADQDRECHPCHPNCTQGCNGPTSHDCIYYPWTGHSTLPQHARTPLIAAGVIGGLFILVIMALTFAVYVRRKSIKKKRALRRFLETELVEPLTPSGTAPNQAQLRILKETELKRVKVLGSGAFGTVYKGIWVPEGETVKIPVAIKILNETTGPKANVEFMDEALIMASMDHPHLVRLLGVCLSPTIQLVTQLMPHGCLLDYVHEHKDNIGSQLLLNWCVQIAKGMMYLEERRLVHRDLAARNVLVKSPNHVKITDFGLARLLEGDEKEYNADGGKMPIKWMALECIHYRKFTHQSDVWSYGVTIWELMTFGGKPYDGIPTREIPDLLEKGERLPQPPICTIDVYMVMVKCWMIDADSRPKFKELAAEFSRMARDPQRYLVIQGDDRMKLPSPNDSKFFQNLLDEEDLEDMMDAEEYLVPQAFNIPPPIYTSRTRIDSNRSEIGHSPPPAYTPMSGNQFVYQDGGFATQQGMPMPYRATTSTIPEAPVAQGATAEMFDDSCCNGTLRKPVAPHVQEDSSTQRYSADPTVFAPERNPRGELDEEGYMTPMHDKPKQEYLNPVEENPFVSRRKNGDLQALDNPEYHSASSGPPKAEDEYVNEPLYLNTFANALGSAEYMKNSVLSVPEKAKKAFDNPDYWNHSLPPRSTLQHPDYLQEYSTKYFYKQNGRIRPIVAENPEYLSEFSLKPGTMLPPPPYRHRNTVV
UniProt P68400, sequence (whole entry, looked up): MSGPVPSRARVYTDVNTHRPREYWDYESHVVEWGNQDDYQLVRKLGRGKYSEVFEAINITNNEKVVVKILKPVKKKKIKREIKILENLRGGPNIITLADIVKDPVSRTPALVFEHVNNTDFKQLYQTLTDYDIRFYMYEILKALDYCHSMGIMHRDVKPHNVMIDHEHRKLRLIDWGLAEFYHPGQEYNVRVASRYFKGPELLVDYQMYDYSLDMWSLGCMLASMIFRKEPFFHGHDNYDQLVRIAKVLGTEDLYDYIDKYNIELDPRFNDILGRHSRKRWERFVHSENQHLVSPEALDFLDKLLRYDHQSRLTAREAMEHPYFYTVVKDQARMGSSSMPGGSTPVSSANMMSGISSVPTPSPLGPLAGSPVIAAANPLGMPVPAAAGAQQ
UniProt Q00535, sequence (whole entry, looked up): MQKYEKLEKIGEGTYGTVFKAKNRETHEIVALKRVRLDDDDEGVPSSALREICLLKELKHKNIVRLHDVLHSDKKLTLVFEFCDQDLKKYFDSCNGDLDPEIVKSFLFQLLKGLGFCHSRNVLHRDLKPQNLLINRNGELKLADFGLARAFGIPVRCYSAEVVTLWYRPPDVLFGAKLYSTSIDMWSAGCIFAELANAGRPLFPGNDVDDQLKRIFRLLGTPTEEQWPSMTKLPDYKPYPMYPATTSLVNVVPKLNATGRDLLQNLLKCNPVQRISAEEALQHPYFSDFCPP
UniProt Q9HCP0, sequence (whole entry, looked up): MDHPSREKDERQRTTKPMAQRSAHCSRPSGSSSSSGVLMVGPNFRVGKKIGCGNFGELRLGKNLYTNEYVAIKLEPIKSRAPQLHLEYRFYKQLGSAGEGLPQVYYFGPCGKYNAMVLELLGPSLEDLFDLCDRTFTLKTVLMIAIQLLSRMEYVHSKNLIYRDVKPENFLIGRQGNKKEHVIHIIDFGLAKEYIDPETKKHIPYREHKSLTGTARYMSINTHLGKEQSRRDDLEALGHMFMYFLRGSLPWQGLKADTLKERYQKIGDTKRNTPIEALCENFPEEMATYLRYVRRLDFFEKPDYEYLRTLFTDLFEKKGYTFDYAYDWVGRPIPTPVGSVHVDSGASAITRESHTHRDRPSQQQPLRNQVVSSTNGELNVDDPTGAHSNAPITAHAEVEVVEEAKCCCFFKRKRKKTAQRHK
UniProt Q13705, sequence (whole entry, looked up): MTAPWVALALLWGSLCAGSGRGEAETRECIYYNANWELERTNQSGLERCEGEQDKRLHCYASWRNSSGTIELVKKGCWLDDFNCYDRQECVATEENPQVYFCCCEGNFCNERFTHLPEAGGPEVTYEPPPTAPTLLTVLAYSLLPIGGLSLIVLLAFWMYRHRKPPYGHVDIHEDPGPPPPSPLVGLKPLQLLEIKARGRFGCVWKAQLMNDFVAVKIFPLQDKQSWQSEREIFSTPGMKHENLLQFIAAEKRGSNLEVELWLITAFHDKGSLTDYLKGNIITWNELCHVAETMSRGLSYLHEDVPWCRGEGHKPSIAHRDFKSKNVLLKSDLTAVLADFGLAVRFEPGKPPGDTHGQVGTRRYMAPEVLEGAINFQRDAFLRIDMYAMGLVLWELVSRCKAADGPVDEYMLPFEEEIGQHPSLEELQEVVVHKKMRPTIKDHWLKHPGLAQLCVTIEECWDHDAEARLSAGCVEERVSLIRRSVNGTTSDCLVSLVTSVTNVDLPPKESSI

Block 1 — effect on: cell-free assay; technique: competition with immobilised ligand; tested at: 1 µM; measurement: remaining binding
Structure (SMILES): CO[C@H]1CC[C@H](CNc2ccc(S(=O)(=O)NC(=O)c3ccc(N4CCN(CC5=C(c6ccc(Cl)cc6)CC(C)(C)CC5)CC4)cc3Oc3cnc4[nH]ccc4c3)cc2[N+](=O)[O-])CC1
Cyclin-dependent kinase 4 (CDK4, Homo sapiens, UniProt P11802): 100%
Activin receptor type-2B (ACVR2B, Homo sapiens, UniProt Q13705): 95%
Casein kinase I isoform gamma-1 (CSNK1G1, Homo sapiens, UniProt Q9HCP0): 100%
Ankyrin repeat and protein kinase domain-containing protein 1 (ANKK1, Homo sapiens, UniProt Q8NFD2): 81%
Glycogen synthase kinase-3 alpha (GSK3A, Homo sapiens, UniProt P49840): 100%
Serine/threonine-protein kinase B-raf (BRAF, Homo sapiens, UniProt P15056, V600E): 93%
Serine/threonine-protein kinase PRP4 homolog (PRPF4B, Homo sapiens, UniProt Q13523): 100%
Casein kinase II subunit alpha (CSNK2A1, Homo sapiens, UniProt P68400): 89%
Death-associated protein kinase 1 (DAPK1, Homo sapiens, UniProt P53355): 73%
Protein-tyrosine kinase 6 (PTK6, Homo sapiens, UniProt Q13882): 100%
Cyclin-dependent kinase 5 (CDK5, Homo sapiens, UniProt Q00535): 82%
Serine/threonine-protein kinase B-raf (BRAF, Homo sapiens, UniProt P15056): 100%
Mitogen-activated protein kinase 6 (MAPK6, Homo sapiens, UniProt Q16659): 81%
Mitogen-activated protein kinase 3 (MAPK3, Homo sapiens, UniProt P27361): 80%
Serine/threonine-protein kinase LATS1 (LATS1, Homo sapiens, UniProt O95835): 87%

Block 2 — tested at: 50 µM; measurement: inhibition
Target: Bromodomain-containing protein 4, BD1 (BRD4, Homo sapiens, UniProt O60885)
S=C(NCc1ccc2c(c1)OCO2)N1CCN(c2ncnc3c2oc2ccccc23)CC1: 21.2%
Cc1cccc(-c2nn3c(c2-c2ccnc4ccc(C(N)=O)cc24)CCC3)n1: 34.5%
Cn1c(=O)n(-c2ccc(C(C)(C)C#N)cc2)c2c3cc(-c4cnc5ccccc5c4)ccc3ncc21: -9.1%
NC1(C(=O)N[C@@H](CCO)c2ccc(Cl)cc2)CCN(c2ncnc3[nH]ccc23)CC1: 7.55%
CNC(=O)c1ccccc1Sc1ccc2c(/C=C/c3ccccn3)n[nH]c2c1: -6.78%
COc1cc2c(Oc3ccc4[nH]c(C)cc4c3F)ncnc2cc1OCCCN1CCCC1: 37.8%

Block 3 — mode: agonist; measurement: EC50
Target: Beta-1 adrenergic receptor (ADRB1, Homo sapiens, UniProt P08588)
UniProt P08588, sequence (whole entry, looked up): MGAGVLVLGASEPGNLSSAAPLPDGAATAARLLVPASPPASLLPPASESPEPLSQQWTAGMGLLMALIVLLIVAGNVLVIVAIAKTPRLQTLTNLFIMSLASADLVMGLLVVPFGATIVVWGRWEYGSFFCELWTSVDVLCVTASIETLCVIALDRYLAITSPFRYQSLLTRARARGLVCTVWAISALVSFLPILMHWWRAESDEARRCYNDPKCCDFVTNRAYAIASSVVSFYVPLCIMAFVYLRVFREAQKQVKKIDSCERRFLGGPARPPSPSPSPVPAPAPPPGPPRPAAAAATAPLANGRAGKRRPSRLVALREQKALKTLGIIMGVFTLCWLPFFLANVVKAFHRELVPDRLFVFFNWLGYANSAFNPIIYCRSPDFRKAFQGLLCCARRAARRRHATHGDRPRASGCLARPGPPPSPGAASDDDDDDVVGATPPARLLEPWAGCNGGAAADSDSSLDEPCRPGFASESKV
COc1ccccc1N1CCN([S+](=O)([O-])c2ccc(C)c(C)c2C)CC1: ≥ 100 µM
CC(C)CN1C(=O)COC[C@@H]1[C@H](O)c1ccc(NC(=O)CCc2ccccc2)cc1: ≥ 100 µM
CC(C)(O)Cn1c(NC(=O)c2ccc(-c3cn[nH]c3)s2)nc2cc(N3CCOC3=O)ccc21: ≥ 100 µM
O=C(NCC1CCN(CCc2ccccc2)C1)c1ccc2[nH]cnc2c1 (stereo not shown): ≥ 100 µM
Cc1[nH]c(/C=C2/C(=O)Nc3ccc(F)cc32)c(C)c1C(=O)NC[C@H](O)CN1CCOCC1: ≥ 100 µM

Block 4 — measurement: inhibition
SMILES: COc1cc(C(=O)N2CCC(N3CCN(C)CC3)CC2)ccc1Nc1ncc2c(n1)N(C)c1ccccc1C(=O)N2C
CSK human; KiNativ profiling; human PBMC; 1 µM, activation loop site, together with: ATP acyl phosphate probe: -13.1%
Receptor tyrosine-protein kinase erbB-4 (Erbb4, Mus musculus, UniProt Q61527); probe labelling, KiNativ, refers to: activation loop peptide; brain tissue lysate (mouse); 1 µM, together with: ATP acyl-phosphate probe: -9.3%
MLK1 (mouse); probe labelling, KiNativ ADP probe; mouse brain lysate; 0.1 µM, LYS1 labelled site: -11.6%
PIK3CD human; KiNativ profiling; human PBMC; 1 µM, ATP site, together with: ADP acyl phosphate probe: 10.8%
TNIK (mouse); probe labelling, inhibitor, KiNativ ActivX ADP probe; mouse brain lysate; 0.1 µM, Lys1 site peptide: 3.3%
mouse CaMK2δ; probe labelling, KiNativ ATP probe; mouse brain lysate; 1 µM: 21.7%
MAP2K1 and MAP2K2 human; KiNativ profiling; human PBMC; concentration not given, LYS2 site, together with: ADP acyl phosphate probe: 11.8%
NEK1 (mouse); probe labelling, KiNativ, refers to: DIkSQNIFLTK peptide, LYS2 site; brain tissue lysate (mouse); 1 µM, together with: ATP acyl-phosphate probe: -13.8%

For quick reference, copied from above (block 1):
Serine/threonine-protein kinase PRP4 homolog (PRPF4B, Homo sapiens, UniProt Q13523): 100%
Casein kinase I isoform gamma-1 (CSNK1G1, Homo sapiens, UniProt Q9HCP0): 100%
Cyclin-dependent kinase 5 (CDK5, Homo sapiens, UniProt Q00535): 82%
